# Results pooled from the literature.
# Protocols differ between the studies behind these lines. Several values in a cell are separate wells, animals, samples, runs or records.
Compound,test,test system,conditions,how to read,Tmax
CCN1CCN(Cc2ccc(Nc3ncc(F)c(-c4cc(F)c5nc6n(c5c4)[C@H](C)CCC6)n3)nc2)CC1,,"human, plasma","300 mg single dose, median",,7.97 h
O=C(O)CCC(=O)O.[2H]C([2H])([2H])Oc1cc(C)c2[nH]ccc2c1CN1CC[C@@H](C2CC2)C[C@H]1c1ccc(C(=O)O)cc1,,"human, plasma","200 mg once daily, day 10, multiple ascending dose, median",,2 h
CN1C(=O)[C@@H](NC(=O)c2nnc(Cc3ccccc3)[nH]2)COc2cccnc21,,"healthy human, fasted, plasma","oral, 30 mg single dose, median",,3.51 h
Cl.[2H]C([2H])([2H])CC(=O)c1cnc(NC(=O)C2CC2)cc1Nc1cccc(-c2ncn(C([2H])([2H])[2H])n2)c1OC,median,human,"oral, 20 mg twice daily, day 14, fasted, tablet, multiple dose",,2.06 h
CCn1cc(C(=O)N2CCOCC2)c(=O)c2cc(NC3Cc4ccccc4C3)cnc21,,"human male, fed, plasma","oral, 900 mg twice daily, day 1, tablet, median",,2.5 h
NC1(C(=O)N[C@@H](CCO)c2ccc(Cl)cc2)CCN(c2nc[nH]c3nccc2-3)CC1,"LC-MS/MS, non-compartmental","human, plasma","360 mg, together with: enzalutamide",,2.1 h and 1 h and 2 h
C=CCn1c(=O)c2cnc(Nc3ccc(N4CCN(C)CC4)cc3)nc2n1-c1cccc(C(C)(C)O)n1,,human,"oral, 150 mg twice daily, monotherapy lead-in, -5 days",median,2 h
CO[C@H]1C[C@@H]2CC[C@@H](C)[C@@](O)(O2)C(=O)C(=O)N2CCCC[C@H]2C(=O)O[C@H]([C@H](C)C[C@@H]2CC[C@@H](OC(=O)NCCOCCOCCOCCOCCOCCOCCOCCOCCC(=O)N3CCc4cc(Cn5nc(-c6ccc7oc(N)nc7c6)c6c(N)ncnc65)ccc4C3)[C@H](OC)C2)C[C@@H](O)[C@H](C)/C=C(\C)[C@@H](O)[C@@H](OC)C(=O)[C@H](C)C[C@H](C)/C=C/C=C/C=C/1C,,"human, plasma","intravenous, 12 mg, cycle 1 day 15, arithmetic mean",,0.92 h
